Experimental data gathered from unrelated publications.
Every numbered part comes from another study and shows a few of its results, in no order.
UniProt Q2M2I8, sequence (whole entry, looked up): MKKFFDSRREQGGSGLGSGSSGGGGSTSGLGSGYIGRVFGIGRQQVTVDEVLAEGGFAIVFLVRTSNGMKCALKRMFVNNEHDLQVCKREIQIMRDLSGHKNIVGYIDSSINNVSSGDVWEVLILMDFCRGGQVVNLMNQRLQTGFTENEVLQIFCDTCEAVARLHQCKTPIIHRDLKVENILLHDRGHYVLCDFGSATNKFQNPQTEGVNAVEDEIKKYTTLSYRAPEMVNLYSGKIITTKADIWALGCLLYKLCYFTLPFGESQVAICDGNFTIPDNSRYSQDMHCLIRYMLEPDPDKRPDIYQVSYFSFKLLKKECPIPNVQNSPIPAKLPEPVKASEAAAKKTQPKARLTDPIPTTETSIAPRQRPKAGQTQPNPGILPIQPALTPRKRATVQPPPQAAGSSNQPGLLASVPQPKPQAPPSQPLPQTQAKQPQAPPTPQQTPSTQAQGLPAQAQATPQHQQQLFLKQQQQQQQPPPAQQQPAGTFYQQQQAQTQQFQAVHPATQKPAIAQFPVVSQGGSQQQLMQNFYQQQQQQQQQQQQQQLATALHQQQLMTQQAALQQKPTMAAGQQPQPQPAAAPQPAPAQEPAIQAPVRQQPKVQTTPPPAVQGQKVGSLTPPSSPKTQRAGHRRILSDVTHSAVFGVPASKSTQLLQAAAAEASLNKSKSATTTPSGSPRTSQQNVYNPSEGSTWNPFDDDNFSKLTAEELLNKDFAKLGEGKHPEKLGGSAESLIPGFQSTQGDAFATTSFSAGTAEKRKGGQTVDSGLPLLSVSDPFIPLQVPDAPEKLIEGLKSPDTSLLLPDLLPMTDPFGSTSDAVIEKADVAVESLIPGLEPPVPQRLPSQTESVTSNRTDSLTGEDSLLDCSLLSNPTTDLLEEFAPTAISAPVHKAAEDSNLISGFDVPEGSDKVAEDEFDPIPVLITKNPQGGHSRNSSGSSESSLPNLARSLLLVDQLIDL

Set 1
Target: Sal-like protein 4, full length isoform B (SALL4, Homo sapiens, UniProt Q9UJQ4-2, residues 1-616)
Method: universal PBM
Form: double-stranded DNA, one strand shown
Sample: in vitro
Concentration: not given
Setting: 8-mer, flanks averaged, mean of replicates
Reading: higher = stronger binding
Construct (chain): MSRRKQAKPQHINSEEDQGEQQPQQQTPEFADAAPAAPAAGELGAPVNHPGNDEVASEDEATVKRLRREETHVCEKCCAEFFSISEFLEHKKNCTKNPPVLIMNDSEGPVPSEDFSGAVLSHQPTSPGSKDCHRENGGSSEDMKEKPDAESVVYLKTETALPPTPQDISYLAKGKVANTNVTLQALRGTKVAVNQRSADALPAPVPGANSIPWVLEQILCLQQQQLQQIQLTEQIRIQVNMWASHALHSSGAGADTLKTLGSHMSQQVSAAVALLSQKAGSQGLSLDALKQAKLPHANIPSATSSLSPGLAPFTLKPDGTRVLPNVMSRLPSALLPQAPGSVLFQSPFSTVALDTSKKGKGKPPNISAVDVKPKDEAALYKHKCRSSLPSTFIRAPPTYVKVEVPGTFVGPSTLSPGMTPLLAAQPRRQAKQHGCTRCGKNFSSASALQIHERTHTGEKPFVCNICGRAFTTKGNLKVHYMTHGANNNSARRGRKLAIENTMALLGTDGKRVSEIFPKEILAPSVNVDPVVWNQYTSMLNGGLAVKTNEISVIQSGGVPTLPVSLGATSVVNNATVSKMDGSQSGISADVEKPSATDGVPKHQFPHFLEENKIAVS
Oligonucleotide	E-score
AACGGGAG	-0.0214
ACTGTCCT	-0.101
AAGGATGT	-0.079
AAGGTTAA	0.116
AAGTCGAA	-0.0753
ACATGCAC	0.106
ACCTCTAG	0.0683
GCATACGA	-0.018

Set 2
Target: Prothrombin, mature alpha-thrombin (F2, Homo sapiens, UniProt P00734)
Method: aptamer microarray, sandwich
Form: DNA with 2'F-ANA
Sample: in vitro
Concentration: 200 nM
Setting: whole 15-mer aptamer, many near background
With: Cy3 exosite-II aptamer, 400 nM
Reading: higher = stronger binding
Oligonucleotide: GGTTGGTGTGGTTGG
Modification	mean fluorescence intensity [a.u.]
2'F-ANA at 1 6 8 10 11 15	54.4
2'F-ANA at 3 6 8 10 14 15	427
2'F-ANA at 1 7 8 9 10 12 13 14 15	49.7
2'F-ANA at 2 5 6 9 10 13 15	78.5
2'F-ANA at 1 2 4 5 6 7 8 10 11 13 14 15	52
2'F-ANA at 2 5 6 10 15	46.3
2'F-ANA at 3 4 5 6 7 8 9 11 12 15	143
2'F-ANA at 1 2 3 4 7 8 11 15	194

Further values, each from its own experiment
SMILES	tested on	test	system	conditions	how to read	measurement	result
CC(=O)OCC(COC(C)=O)OC(C)=O	mouse MPNST tumor cells	high-content nuclear imaging, item: cell number	–	10 µM, 12 h, mean of 2 replicates	reference: plate mean, higher = more cells	nuclei count	-0.568 z-score
CC[C@H]1OC(=O)[C@H](C)[C@@H](O[C@H]2C[C@@](C)(OC)[C@@H](O)[C@H](C)O2)[C@H](C)[C@@H](O[C@@H]2O[C@H](C)C[C@H](N(C)C)[C@H]2O)[C@](C)(OC)C[C@@H](C)C(=O)[C@H](C)[C@@H](O)[C@]1(C)O	Plasmodium berghei	inhibitor	Huh-7, GFP-expressing sporozoites, liver stage	10 µM, 24 h	reference: untreated control	infection rate	99.2%
CNC(=O)Nc1ccc2c(c1)CC[C@]21OC(=O)N(CC(=O)N(Cc2ccc(F)cc2)[C@@H](C)C(F)(F)F)C1=O	AAK1 (Homo sapiens, UniProt Q2M2I8)	KINOMEscan	–	1 µM	reference: control	remaining binding	100%
CC(O)CC(C)(C)CNC(=O)Nc1cc(CC(C)(C)C)nn1C (centres unmarked)	–	–	mouse, microsomes or S9	2 µM, 0.5 h	–	remaining compound	2.42%
